Measured values of several laboratories.
Numbered parts are unrelated; each lists some results of a single study.

Series 1
Target: Histone acetyltransferase KAT6A, both winged helices, GST fusion (KAT6A, Homo sapiens, UniProt Q92794, residues 1-181)
Technique: protein binding microarray
Molecule type: double-stranded DNA, one strand shown
Medium: in vitro
Concentration: not given
Notes: 8-mer, flanks averaged, mean of 2 arrays, mostly near background
Reference: not given
Reading: higher = stronger binding
Quantity: E-score
Residues (chain): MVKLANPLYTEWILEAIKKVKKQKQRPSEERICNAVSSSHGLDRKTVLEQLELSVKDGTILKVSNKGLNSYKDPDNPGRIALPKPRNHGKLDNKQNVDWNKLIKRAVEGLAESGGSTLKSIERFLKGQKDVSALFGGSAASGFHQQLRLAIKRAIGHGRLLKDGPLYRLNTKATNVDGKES
CGCGAAGC: 0.284
ACTAGTAC: 0.00884
AATCTATA: -0.0311
AAACCATT: -0.159
ATAGCAAC: -0.188
AGTAACAA: -0.0617
CCGGTGAA: 0.221
CAAGTTCC: 0.00781
CGATAAGC: 0.119
CAGTCAAG: -0.203
GTGGGAAC: -0.097
CGGGAAAG: 0.164
GCTCAGAC: -0.171
GAAGCATA: -0.153
CCGCACGC: 0.273
CGCTCAAC: 0.169
TACAGTGA: -0.141

Series 2
Target: Sal-like protein 4, full length isoform B (SALL4, Homo sapiens, UniProt Q9UJQ4-2, residues 1-616)
Technique: universal PBM
Molecule type: double-stranded DNA, one strand shown
Medium: in vitro
Concentration: not given
Notes: 8-mer, flanks averaged, mean of replicates
Reading: higher = stronger binding
Quantity: E-score
CGGAAACC: -0.316
AACACTAC: 0.0707
ACGTTAGG: 0.0956
GCGCGTAC: -0.115
GGCGCGAC: -0.297
TCTTAAGA: 0.15
CCGGACAC: -0.311
GCTGCTTA: -0.0504
AGAGTGGC: -0.197
CATAGAAC: -0.123
GACGTCAA: 0.0345
CCCCGCGG: -0.411
ATCTGCGA: -0.149
CACCTTAA: 0.127
GCAACAAC: -0.00327
AATGATGG: 0.15
AGCACGAC: -0.291
AGAATCAC: -0.0531
AGGGAACC: -0.22

Series 3
Target: POU domain, class 5, transcription factor 1, POU domain (Pou5f1, Mus musculus, UniProt P20263, residues 131-289)
Sequence of UniProt P20263 (131-289, looked up): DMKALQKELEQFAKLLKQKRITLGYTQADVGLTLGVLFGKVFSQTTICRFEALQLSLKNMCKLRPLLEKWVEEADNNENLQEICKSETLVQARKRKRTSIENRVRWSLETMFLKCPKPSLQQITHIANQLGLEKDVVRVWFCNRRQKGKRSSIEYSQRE
Technique: Spec-seq
Molecule type: double-stranded DNA, one strand shown
Medium: in vitro
Concentration: not given
Notes: whole probe, mean of replicates
Reference: not given
Reading: lower = stronger binding
Quantity: relative binding energy
Shared flanks, not repeated: GAGTCGTCTCGTCAGCAC … CCGTAGAGCACTCAGGTC
CCTGTAAT: 0.829 ln ratio
ATTGCTAT: 0.454 ln ratio
ATATAAAT: -0.429 ln ratio
ATAAATAT: -1.06 ln ratio
ATCATGAT: 0.729 ln ratio
ACGCTAAT: -0.0741 ln ratio
ATGCCCGC: 0.791 ln ratio
ATGCGCCC: 0.445 ln ratio
GCAGTAAT: 0.728 ln ratio
ATATTAAT: -0.381 ln ratio
ATCTGAAT: -0.732 ln ratio
GGATTAAT: 0.241 ln ratio
ATGCGAGG: 0.236 ln ratio
ATAAAGAT: 0.295 ln ratio
ATTCTTAT: 0.327 ln ratio
ATGCGCTG: 0.872 ln ratio
ATGCTGTT: 0.663 ln ratio
CTTGTAAT: 0.548 ln ratio
ATGCGTTC: 0.241 ln ratio

Series 4
Target: Ras GTPase-activating protein-binding protein 1, RRM domain (G3BP1, Homo sapiens, UniProt Q13283)
Sequence of UniProt Q13283 (whole entry, looked up): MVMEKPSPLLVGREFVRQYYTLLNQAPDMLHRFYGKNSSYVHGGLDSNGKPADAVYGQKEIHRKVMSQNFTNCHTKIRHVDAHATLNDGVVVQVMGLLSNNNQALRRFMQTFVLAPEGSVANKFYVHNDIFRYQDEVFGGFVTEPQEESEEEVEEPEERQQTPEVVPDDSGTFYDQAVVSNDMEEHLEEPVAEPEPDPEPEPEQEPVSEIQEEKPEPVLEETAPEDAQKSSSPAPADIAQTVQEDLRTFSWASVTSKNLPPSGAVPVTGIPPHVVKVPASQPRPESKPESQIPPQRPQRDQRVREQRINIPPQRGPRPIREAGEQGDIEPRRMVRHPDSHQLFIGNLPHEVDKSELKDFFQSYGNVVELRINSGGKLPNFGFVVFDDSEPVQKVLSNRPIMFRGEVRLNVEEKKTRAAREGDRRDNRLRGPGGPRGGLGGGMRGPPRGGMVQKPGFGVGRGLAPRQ
Technique: RNA Bind-n-Seq
Molecule type: RNA
Medium: in vitro
Concentration: 1 µM
Notes: whole 134-nt RNA, ends assumed
With: 150 mM KCl
Reference: input library
Reading: higher = stronger binding
Quantity: log2 enrichment
Shared flanks, not repeated: GGGAGUUCUACAGUCCGACGAUC … UGGAAUUCUCGGGUGUCAAGG
GUCCUGUGCUACACAUCGUAUGUACCGAAUCAAAUUUAAAUUUUUUUAAAUUUUUAAAAAAGUAUUAUGUUACGCCGUUCGGAUCUGCAC: -0.71
AAGUCCUGUGCUACACAUCGUAUGUACCGAAUCGGGAGGGAAAAAAAGGGUUUGGGAAAGUAUUAUGUUACGCCGUUCGGAUCUGCACUU: 0.656
CCUGUGCUACACAUCGUAUGUACCGAAUCGGGUUUUUUUGGGUUUUUUUGGUUUUUUUGGGAAAGUAUUAUGUUACGCCGUUCGGAUCUG: -0.249
GUCCUGUGCUACACAUCGUAUGUACCGAAUCGGGGUUUUUUUGGGGUUUGGGGAGGGGAAAGUAUUAUGUUACGCCGUUCGGAUCUGCAC: 0.863
CAAGUCCUGUGCUACACAUCGUAUGUACCGAAUCAAACCCAAACCCAAACCCAAAAAAGUAUUAUGUUACGCCGUUCGGAUCUGCACUUC: -0.257
UAACAUUAGAGGAGGAUCUGAUGGAUAUGGCAGUGGACGUGGAUUUGGGGAUGGCUAUAAUGGGUAUGGAGGAGGACCUGGAGGUGGCAA: -0.377
CACAGACAACACGCACCCACACAGACACAGAGGGUAGGGGUUGGGAUGGGGACAGGGUGCACAGCAGGGCGGGGUAGGACCCCAGCCCCU: -0.12
CUCAAGUCCUGUGCUACACAUCGUAUGUACCGAAUCGGGAAGGGAAGGGAAGGAAAGUAUUAUGUUACGCCGUUCGGAUCUGCACUUCCA: -0.283
GUUAAUUCCACCAUCCCCAUCACAGCAGAAGUUUUCAAGAAGCAUGGAGUGUACAACCCCAACAAAAUCUUCGGCGUGACGACCCUGGAC: 0.039
ACCAUGCAGGGGGGCAUCUUUGGGAAGUGGGGCAAGGGGGGGAUAGGGAGGGGGGUAACACUUUGGGAACAGGUGGUCCCAGGUCGUUUC: -0.245
UCAAGUCCUGUGCUACACAUCGUAUGUACCGAAUCGGGGCCCGGCCCGGGCCCGGAAAGUAUUAUGUUACGCCGUUCGGAUCUGCACUUC: -0.597
UUCUCUGCCGGCUCAGAGGAGAGGAGACGCCGUGAGCGGGACGACCAGAUGUACCGAGAGCGGCUGCGCACCUUGCUGGUCAUCGCGGUU: -0.516
AAGUCCUGUGCUACACAUCGUAUGUACCGAAUCGGGGAAAGGGGAAAGGGGAAAGGGAAAGUAUUAUGUUACGCCGUUCGGAUCUGCACU: 0.378
UGGGAGGUGGAUUUUGUUUAUUUUUUUAGCUCAUUUCCAGGGGUGGGAAUUUUUUUUUAAUAUGUGUCAUGAAUAAAGUUGUUUUUGAAA: 1.34

Series 5
Target: RNA binding protein fox-1 homolog 2, RRM domain, GST-SBP tag (RBFOX2, Homo sapiens, UniProt O43251-10, residues 100-194)
Technique: RNA Bind-n-Seq
Molecule type: RNA
Medium: in vitro
Concentration: 365 nM
Notes: natural RNA segment, single round, ends assumed
Reference: no-protein control
Reading: higher = stronger binding
Quantity: RBNS enrichment (R)
Shared flanks, not repeated: GGGAGUUCUACAGUCCGACGAUC … UGGAAUUCUCGGGUGCCAA
Target sequence (chain): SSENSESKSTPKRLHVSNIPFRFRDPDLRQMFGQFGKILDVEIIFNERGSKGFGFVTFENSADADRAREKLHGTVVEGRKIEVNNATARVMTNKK
GUUGGCCUUGAAGCAGAGGGCACAGCCCUUGGUGUUUGUAAAAUAAGUAUGAAUACACAGUGUGGCAGUGUUGUGGUUUUUGUUGUUGUUUUUCCUCUCCUUUUGAGAAU: 0.845
UCAUGCAGCCUCAGCCCAGGCUAACCCAGUCAGUGUUUUCACCACGUCUGACCUUUCUCUCUGCACUUAGGAUUGGUGUCCACUUGUAGAUUUCUUUCAACACAGUAUAA: 1.16
UGUCCAGCAUGACCCAUAAACAGGUCAGAAGAAUGAUGGAAUGUUUUAGAAUAAACUCCUGCUUAUAGUAUACUACACAGUUCAAAAGAUGUUUAAAAUGCUUUUGUAUU: 2.9
UCAUGCUUUUGAAGAGCAUCAGUGAUUACUUAGGGUGUAAUAUGUAAAGAUCAGACAUCUCCAAAAACAGAAAAAGUACAAGUAAACAACACACUUUCUCAUGACUUUUA: 0.498
UCCAAAUCCACUUUUACUGAAAAAUACUGUACAUGUGUAAAAUGUUCAGUUGUUUUUUUGUAAAAUAUAGUAGAACGGUUGUAACUGAUACUGGCCAAAAUCAAUGUUAU: 0.356
AUCUGUCUGUGUGGCUUGUUCUGUGGGCCUGAACUCCUAAGCACAGGUCGGGGGUAAAACUAGGAUGCUAGUAGGUGUUGUCUAUAGAGAGGCGCUGAGGAAGUGAGCUG: 1.21
GCCGCUGCCACUUCACCCUGUGGGAAGUGGCCCCAGCCAUCUCCUCUAGACCAAGGCAGGCAGCCCCGACAUCUGCUUCCUCUAUCGCCCAAUGCAAAAUCGAUGAAAUG: 0.308
AAUGCUGAUGGGAACUUGGAAGUUCAGAAACCAAGGGGAAAUGUCCUGAGAUAACAUUUGCAUUGUCGACCUCAGUUGACUGUUUUUACAAUAAAAAUAUUUUGCAGCUU: 0.497
CCUAAGCACUUGCUGUUGUUCUUUUGUGAUUAUGGCUGUACAUUUAGUUGUCUUUCUAGUUAUGAAAAGAACGUUGACACACGUAGGCAUGGCCGCCCCACUCAGGUGUU: 0.439
GAGAGGGGCCCAUUCACCUUUCUCCUAGAAUGCUGUUGUAAAUAAACAAAUGGAUCCCUGGAAACUUCUCAAGCUUUGCUUUGGAGCCUUGGGUGAGCCCCUGGAUGUGG: 1.04
GCUUUUGGUGAGAAGGUGUUGGACAGGGGAUUGGCGCCCCCCUUUGGUUUGGCCUCCAUCCUCAUCUCUCUUGGGCCAAGCCAGCUGCCUAGGUCCCCCAAGCAUGGGGG: 0.392
ACUGUAAACAUUGCUUAAUUUUUUUGCUCUUGAUUUAAAAAAAAGUUUUGUUGAAAGCGCUAUUGAAUAUUGCAAUCUAUAUAGUGUAUUGGAUGGCUUCUUUUGUCACC: 0.232

Some of these lines once more (series 5):
GUUGGCCUUGAAGCAGAGGGCACAGCCCUUGGUGUUUGUAAAAUAAGUAUGAAUACACAGUGUGGCAGUGUUGUGGUUUUUGUUGUUGUUUUUCCUCUCCUUUUGAGAAU: 0.845
UCAUGCAGCCUCAGCCCAGGCUAACCCAGUCAGUGUUUUCACCACGUCUGACCUUUCUCUCUGCACUUAGGAUUGGUGUCCACUUGUAGAUUUCUUUCAACACAGUAUAA: 1.16
UGUCCAGCAUGACCCAUAAACAGGUCAGAAGAAUGAUGGAAUGUUUUAGAAUAAACUCCUGCUUAUAGUAUACUACACAGUUCAAAAGAUGUUUAAAAUGCUUUUGUAUU: 2.9
UCAUGCUUUUGAAGAGCAUCAGUGAUUACUUAGGGUGUAAUAUGUAAAGAUCAGACAUCUCCAAAAACAGAAAAAGUACAAGUAAACAACACACUUUCUCAUGACUUUUA: 0.498
UCCAAAUCCACUUUUACUGAAAAAUACUGUACAUGUGUAAAAUGUUCAGUUGUUUUUUUGUAAAAUAUAGUAGAACGGUUGUAACUGAUACUGGCCAAAAUCAAUGUUAU: 0.356
AUCUGUCUGUGUGGCUUGUUCUGUGGGCCUGAACUCCUAAGCACAGGUCGGGGGUAAAACUAGGAUGCUAGUAGGUGUUGUCUAUAGAGAGGCGCUGAGGAAGUGAGCUG: 1.21
GCCGCUGCCACUUCACCCUGUGGGAAGUGGCCCCAGCCAUCUCCUCUAGACCAAGGCAGGCAGCCCCGACAUCUGCUUCCUCUAUCGCCCAAUGCAAAAUCGAUGAAAUG: 0.308
AAUGCUGAUGGGAACUUGGAAGUUCAGAAACCAAGGGGAAAUGUCCUGAGAUAACAUUUGCAUUGUCGACCUCAGUUGACUGUUUUUACAAUAAAAAUAUUUUGCAGCUU: 0.497
CCUAAGCACUUGCUGUUGUUCUUUUGUGAUUAUGGCUGUACAUUUAGUUGUCUUUCUAGUUAUGAAAAGAACGUUGACACACGUAGGCAUGGCCGCCCCACUCAGGUGUU: 0.439
GAGAGGGGCCCAUUCACCUUUCUCCUAGAAUGCUGUUGUAAAUAAACAAAUGGAUCCCUGGAAACUUCUCAAGCUUUGCUUUGGAGCCUUGGGUGAGCCCCUGGAUGUGG: 1.04
GCUUUUGGUGAGAAGGUGUUGGACAGGGGAUUGGCGCCCCCCUUUGGUUUGGCCUCCAUCCUCAUCUCUCUUGGGCCAAGCCAGCUGCCUAGGUCCCCCAAGCAUGGGGG: 0.392
